# Results pooled from the literature.
# Every numbered part comes from another study and shows a few of its results, in no order.

# Block 1
# Target: RNA binding protein fox-1 homolog 2, RRM domain, GST-SBP tag (RBFOX2, Homo sapiens, UniProt O43251-10, residues 100-194)
# Method: RNA Bind-n-Seq
# Molecule type: RNA
# Medium: in vitro
# Concentration: 365 nM
# Notes: natural RNA segment, single round, ends assumed
# Relative to: no-protein control
# Reading: higher = stronger binding
# Target sequence (chain): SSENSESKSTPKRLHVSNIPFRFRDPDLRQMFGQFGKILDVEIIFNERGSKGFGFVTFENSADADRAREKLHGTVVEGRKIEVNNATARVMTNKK
Sequence,RBNS enrichment (R)
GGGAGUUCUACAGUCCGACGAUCCUAUGUAACAUGUAGGAAGUAGGAAGUAAAUUAUAGUGAUGUAAUCUUGAAUUGUAACUGUUCUUGAAUUUAAUAAUCUGUAGGGUAAUUAGUAACAUGUGUUAAGUAUUUGGAAUUCUCGGGUGCCAA,0.694
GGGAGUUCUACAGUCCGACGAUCCAUCGAGGGUUCUGAGAGUGACUUUUCUCUGUUGGGUGCUUUCUUUGCCACCCUCAUAGCUUUCCCACAUCUUGUAGGUGCCAUAUACAAUGCCUUAAUGUAAUUAGCCUUGGAAUUCUCGGGUGCCAA,0.289
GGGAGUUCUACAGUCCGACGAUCUAACCUUUUGGGGCUGUCAGUUUUCCACUAGGAUUAAGAUUUUGGCCGGGCGCGGUGGCUCACGCCUGCAAUCCCAACACAUUGGGGGGUCGAGGCGGACGGAUCACUUUUGGAAUUCUCGGGUGCCAA,0.362
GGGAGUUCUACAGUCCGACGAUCCAGGGGCCUAGCCCUGGGCAUAUUCAUUUGUUUGCUUCUCUGGGACAGUAUGCCCUGCCUUCCCUGGGCCAAAAGAAAUCCGUGCUGUCACUGAUGCUGGCGAUGAUGCAUGGAAUUCUCGGGUGCCAA,0.645
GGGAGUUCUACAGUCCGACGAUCUCUCUCAUUGCCGCUGCCACUAUCACCUGUCUCUCUGCCAGCUGAUGUGCCCUGUUGCCCCCCACCCCAUCCCGCACAGAACCAUCCCUGCAUUCCACAGGGGACUCGGGUGGAAUUCUCGGGUGCCAA,0.458
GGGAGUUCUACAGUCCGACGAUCGCCAAGUUCUACACCUUGUUUGGUCGGAGUUAUGAUGGACAAAACAGAAGCCACUCUCUCUCUCGCUCAUCUUUUUUUAAAACCACUGAUACGAAGAUCUUCUCAGAUGCUGGAAUUCUCGGGUGCCAA,1.36
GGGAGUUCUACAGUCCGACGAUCGUUUACUCUCCUUCUAGCUUUCUGCUUACCGCACACUGGAUAACACACACAUACACACCCACAAAAAUGCUCAUGAACCCAAUCCGGAGAAGGUUCCAGCAGGUCCCCCAUGGAAUUCUCGGGUGCCAA,0.658
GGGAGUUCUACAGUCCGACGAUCAGGAAAUGUGAAAAUAUUUGUGUUUGUUUUGUCUGACUAACUUGCUGCUAAAUGCUAUCUUUAGGUGUGUGAAAGUUCUUUGAUAUGUUAUUGUCCUUUUACAUCUUGUUUGGAAUUCUCGGGUGCCAA,1.01
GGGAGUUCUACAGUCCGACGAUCAGUAGAAAUCUCAAGGCUUUACCCAGAAGAGCCCAGUCAGGGAGAGGUGUAAAUGCAAAAUUGCCAAAUAGCACAAACAAUGAAUGUUUUCUGGUUGUUAUAUAGAUGCCUGGAAUUCUCGGGUGCCAA,0.866
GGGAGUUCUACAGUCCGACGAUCUCUUCCCACAUCAGAGAAUUUUUUUUUAAACCAAAAUGGGCAGAAUAGCAUUUUGUAUGUUAGAGACCAUUCUUUUCUAGUCCUUCCAAACAUUCCUGUGUCACUUAAGAUGGAAUUCUCGGGUGCCAA,0.865
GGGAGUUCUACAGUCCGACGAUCGACGCAGCACCCGAGGUCCCAGCCUUUGCAGGAGCCUCCCUGGGCUUAGCUGGACUUAGAUCUUCGGUGGCCUCAUGUAAACGUGGCAGCCAGCCUCUUCUAGAACCCUAUGGAAUUCUCGGGUGCCAA,0.303
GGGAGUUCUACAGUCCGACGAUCAACCAGGCCAGUCCGGCUCUGGGGAGCAGGGGCCUCCCCGGCAACAGCCCCAGGGGCCUUGAGGGUCUGAGGUCCCAGCCCUGUUGCCAAGUGACCUUGUCCCCAGCUCCUGGAAUUCUCGGGUGCCAA,0.297

# Block 2
# Target: Prothrombin, mature alpha-thrombin (F2, Homo sapiens, UniProt P00734)
# Method: aptamer microarray, sandwich
# Molecule type: DNA with 2'F-ANA
# Medium: in vitro
# Concentration: 200 nM
# Notes: whole 15-mer aptamer, many near background
# Together with: Cy3 exosite-II aptamer, 400 nM
# Reading: higher = stronger binding
# Sequence: GGTTGGTGTGGTTGG
Modification,mean fluorescence intensity [a.u.]
2'F-ANA at 5 7 8 9 12 15,170
2'F-ANA at 5 7 8 10 11 12 15,52.3
2'F-ANA at 1 7 9 11 15,149
2'F-ANA at 1 3 7 8 9 12 13 14,125
2'F-ANA at 1 3 6 7 8 11 14 15,106
2'F-ANA at 1 2 3 4 9 11 15,173
2'F-ANA at 2 3 5 6 8 9 12 13 14,53.2
2'F-ANA at 2 3 6 8 9 10 14,280
2'F-ANA at 1 2 5 6 7 8 9 12,117
2'F-ANA at 1 2 4 8 9 10 12 13 15,54.3
2'F-ANA at 2 3 6 8 14,464
2'F-ANA at 2 6 7 8 10 11 12 14 15,87.8
2'F-ANA at 1 4 6 7 8 15,154
2'F-ANA at 1 3 5 6 7 9 10 11 13 15,52.1
2'F-ANA at 2 3 4 8 9 10 11 12,337
2'F-ANA at 3 4 5 7 8 10 11 14,48.2
2'F-ANA at 2 3 4 8 9 12 13 14 15,287
2'F-ANA at 3 4 5 7 8 9 11 12,221
2'F-ANA at 1 2 3 4 12 14 15,82.9
2'F-ANA at 6 8 9 10 11 13 15,120
2'F-ANA at 3 5 6 7 9 10 15,68.9
2'F-ANA at 3 4 5 6 7 8 12,292
2'F-ANA at 2 5 7 11 12 14 15,216
2'F-ANA at 1 4 5 9 10 11 12,47.4
2'F-ANA at 2 3 4 7 10 11 12 13 14 15,206

# Block 3
# Target: RING finger protein unkempt homolog, zinc fingers 1-6, GST-SBP tag (UNK, Homo sapiens, UniProt Q9C0B0, residues 30-357)
# Method: RNA Bind-n-Seq
# Molecule type: RNA
# Medium: in vitro
# Concentration: not given
# Notes: RNA with constant flanks, human and mouse sites, ends assumed
# Relative to: input RNA pool
# Reading: higher = stronger binding
# Target sequence (chain): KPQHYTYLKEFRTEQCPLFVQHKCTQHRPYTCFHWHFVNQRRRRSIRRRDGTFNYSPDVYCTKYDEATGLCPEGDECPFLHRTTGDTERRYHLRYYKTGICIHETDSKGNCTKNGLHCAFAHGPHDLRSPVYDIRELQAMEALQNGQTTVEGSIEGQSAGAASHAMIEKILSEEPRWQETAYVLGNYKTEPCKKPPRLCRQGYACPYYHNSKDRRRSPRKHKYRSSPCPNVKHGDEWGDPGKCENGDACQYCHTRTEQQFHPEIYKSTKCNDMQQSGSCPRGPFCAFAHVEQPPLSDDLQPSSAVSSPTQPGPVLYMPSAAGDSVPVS
Sequence,bound/input enrichment [ratio]
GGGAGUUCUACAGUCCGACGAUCAUAAUUGGGGAUGAACAUUUUUGAAGAUUUAUUCUUUUGUGUUGCUGGGGUGUAUACAUUUAUGUCUUUGUGAAAUACACUGGUGGUGUCCUUCUUAAAAACUUUUGAAAUAAAAAAAGACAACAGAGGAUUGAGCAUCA,0.5
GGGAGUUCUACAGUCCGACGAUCAGUGACAUUGCUCUUUGGUAAAAAUGCCUGCUUUCCAAUACUUUGAUUGCAUAUUAGACAUUCUUAACAGGGCGGCAGUCUAGUGUUGAAAGUUUUAUUUUUCCAUUUUUCUUUUAAGUACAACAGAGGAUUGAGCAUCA,0.59
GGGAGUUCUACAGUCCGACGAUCGGUGUCUUCUCAAACGGAGUAAGCGCCUGGAUCCAAAUGGUAGACUACUUGACCCCGUUCUCUAGCGUGAGUUUUCAUAGUGCCAUCUCCUCAUGAUUGUAGAAGCAGCUGAAUGAGUUUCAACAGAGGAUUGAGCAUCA,0.221
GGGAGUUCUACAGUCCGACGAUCCUGAAGCCCAUGUUGCAGCGGGACUUUAUUACCGCUUUACCAGAGCAAGGCUUAGAUCACAUAGCAGAAAACAUUCUUUCGUACCUGGAUGCCAGGUCUCUGUGUGCAGCAGAGCUGGUACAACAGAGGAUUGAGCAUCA,0.792
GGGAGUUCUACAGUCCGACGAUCAUCAGAGAAGCCAAAGAGAAACUGGAGGCAGAGAUGGAAGCAGCUAGACAUGAACACCAGUUAAUGCUAAUGAGGCAAGAUCUAAUGAGACGUCAAGAAGAACUCAGACGUUUGGAAGAACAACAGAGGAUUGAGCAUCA,0.162
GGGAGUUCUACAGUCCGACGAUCUAUUACACUCAGAUGCUUCUCCUGGCCGCAGUUGUAGGAGUGGCUUGCUUUCUCUAUGGAUAUCUUAAUCAAGAUAACUGUACAUGGAGCAAAGAAGUUUGUCAUCCUGAUAUUGGUGGCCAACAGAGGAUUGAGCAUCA,0.247
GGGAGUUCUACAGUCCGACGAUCCCUAGUCAUCCCCUUGAAUUAUCAGAAAAAAAUUUCCAGCUCAACCAAGAUAAAAUGAAUUUUUCCACACUGAGAAACAUUCAGGGUCUAUUUGCUCCGCUAAAAUUACAGAUGGAAUUCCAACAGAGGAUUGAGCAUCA,0.821
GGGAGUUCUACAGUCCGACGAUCGUUAAAGAUUCUUCUCAAGAAGAAGAUGAUAUCAGUUGCGCUGAAAUAGCAGAUGAAGUUUACAUGGAAGUCAUUGUAGGGGAAGAGGAAGGAACUUCUCUCCCUGAGAUUCAGCUUGAGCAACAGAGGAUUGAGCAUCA,0.275
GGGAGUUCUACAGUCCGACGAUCUACCUCCUCAGCGAUGGGACCUGCAAGUGCGGUCUGGAGUGUCCACUUAAUGUACCCAAGGUUUUCAACUUUGACCCUCUGGCCCCGGUGACCCCGGGUGGGGCUGGGGUGGGGCCUGCACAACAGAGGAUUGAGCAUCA,0.14
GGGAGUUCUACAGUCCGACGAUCGAUCUCGGUGGGCAUGAGCAAGCACGUCGCGUUUGGAAAAAUUAUCUCCCAGCGAUUAAUGGCAUAGUUUUUCUGGUGGACUGUGCGGAUCAUUCUCGUCUCAUGGAAUCCAAAGUUGAGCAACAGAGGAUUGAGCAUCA,0.153
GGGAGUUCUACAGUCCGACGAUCACUGUGCCGGUGUGAAAGCUCUCCAGACUUGCACGCCUCACUGACGCUGCGCACAGAGAUGUGGAAGUGCUGCUGCUGCUGUCUAACGCUGCCUACUAUGUGGCCUAUUAUGAUGACGAACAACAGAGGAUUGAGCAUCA,0.0915

# Block 4
# Target: Histone acetyltransferase KAT6A, winged helix 1, GST fusion (KAT6A, Homo sapiens, UniProt Q92794, residues 1-85)
# Method: protein binding microarray
# Molecule type: double-stranded DNA, one strand shown
# Medium: in vitro
# Concentration: not given
# Notes: 8-mer, flanks averaged, mean of 2 arrays, mostly near background
# Relative to: not given
# Reading: higher = stronger binding
# Residues (chain): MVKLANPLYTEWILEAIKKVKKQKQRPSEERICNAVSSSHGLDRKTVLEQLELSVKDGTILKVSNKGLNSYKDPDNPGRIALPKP
Sequence,E-score
ATTGTCCA,-0.142
CGAGGCGC,0.3
AGTACGAC,-0.029
CTTCTGAA,-0.0141
ACCCCACA,-0.277
ATAGCACG,0.145
GTGTAAGA,-0.203
CACATCAA,-0.104
GGGATCGA,-0.0966
AACCAAGT,-0.0923
AGCCCTCA,-0.125
GCCCTGTA,0.0118
CAGCGAAC,-0.0533
ACCAGTCG,0.00139
ATGTTTGA,-0.323
GTGGCAAA,-0.182
AACTCAAT,-0.234
AGCAACAA,-0.23
TGCCGGAA,0.151
ATTTCAGG,-0.104
TCATCGCA,-0.0166
AAGGCCGG,0.306
CGCCGGCA,0.451
ACCAAGAA,-0.214
AAGAACTA,-0.0295

# For quick reference, copied from above (block 2):
Modification,mean fluorescence intensity [a.u.]
2'F-ANA at 1 4 5 9 10 11 12,47.4
2'F-ANA at 3 4 5 7 8 10 11 14,48.2
2'F-ANA at 1 7 9 11 15,149
2'F-ANA at 1 4 6 7 8 15,154
2'F-ANA at 2 3 4 7 10 11 12 13 14 15,206
2'F-ANA at 1 3 6 7 8 11 14 15,106
